# Assay results collected from several papers.
# Compare with care: the assays were run in different laboratories. Several values in a cell are separate wells, animals, samples, runs or records. Numbers after ± are the reported error.
# Chain of UniProt Q8IU85 (whole entry, looked up): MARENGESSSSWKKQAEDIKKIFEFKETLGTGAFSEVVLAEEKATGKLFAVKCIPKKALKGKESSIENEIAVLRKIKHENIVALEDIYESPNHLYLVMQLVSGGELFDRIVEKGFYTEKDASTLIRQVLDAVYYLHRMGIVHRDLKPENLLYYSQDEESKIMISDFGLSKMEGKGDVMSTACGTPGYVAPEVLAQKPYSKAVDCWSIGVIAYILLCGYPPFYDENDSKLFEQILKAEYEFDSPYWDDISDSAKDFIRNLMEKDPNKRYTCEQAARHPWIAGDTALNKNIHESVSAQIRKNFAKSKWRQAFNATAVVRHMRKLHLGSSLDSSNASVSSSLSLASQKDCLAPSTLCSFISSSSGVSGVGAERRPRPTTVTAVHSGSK
# Chain of UniProt Q9UHD2 (whole entry, looked up): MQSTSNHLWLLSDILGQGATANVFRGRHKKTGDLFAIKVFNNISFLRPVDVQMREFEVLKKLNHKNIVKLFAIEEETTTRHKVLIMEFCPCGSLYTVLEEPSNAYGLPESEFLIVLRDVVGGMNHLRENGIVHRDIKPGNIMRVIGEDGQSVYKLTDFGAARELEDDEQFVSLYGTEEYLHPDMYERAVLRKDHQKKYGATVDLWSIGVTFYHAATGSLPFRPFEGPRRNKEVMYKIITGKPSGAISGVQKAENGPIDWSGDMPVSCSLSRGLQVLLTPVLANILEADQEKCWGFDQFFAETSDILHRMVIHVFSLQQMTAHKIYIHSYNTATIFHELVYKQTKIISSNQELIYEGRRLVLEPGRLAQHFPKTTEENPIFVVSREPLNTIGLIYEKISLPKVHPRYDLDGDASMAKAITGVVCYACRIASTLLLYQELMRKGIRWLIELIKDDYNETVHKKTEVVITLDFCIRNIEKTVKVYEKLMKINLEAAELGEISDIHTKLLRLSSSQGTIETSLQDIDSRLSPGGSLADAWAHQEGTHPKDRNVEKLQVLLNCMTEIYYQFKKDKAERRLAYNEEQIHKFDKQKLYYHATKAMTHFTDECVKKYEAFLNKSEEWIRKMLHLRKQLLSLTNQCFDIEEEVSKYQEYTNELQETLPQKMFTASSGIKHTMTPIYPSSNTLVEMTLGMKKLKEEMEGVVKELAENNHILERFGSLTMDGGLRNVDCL
Structure (SMILES),tested on,test,system,setting,scale,measurement,value
CC1(C)CC(=O)c2c(C(F)(F)F)nn(-c3ccc(C(N)=O)c(N[C@H]4CC[C@H](O)CC4)c3)c2C1,primary human fibroblasts uninfected,live/dead staining,,48 h,,CC50,> 60 µM
N#Cc1ccc2c(c1)[C@H]1CCCN(C(=O)c3ccc4[nH]cnc4c3)[C@H]1C2,,,human,"360 mg, day 7",,minimum ACTH level,3.5 pmol/L
COc1ccc(Cn2cc(CO[C@@H]3O[C@H]4[C@H](OC[C@H]4O)[C@H]3O)nn2)cc1,HCT-116,"cytotoxicity, CellTiter-Glo",,"up to 30 µM, 72 h",,viability,not toxic
O=C(Nc1ccncc1)c1cc([N+](=O)[O-])ccc1Cl,THP-1 PMA-differentiated macrophages,CellTiter-Glo,,"72 h, host cell cytotoxicity",,CC50,22 µM
Nc1nc2c(ncn2COCCO)c(=O)[nH]1,HEL,cell morphology,,,,minimum cytotoxic concentration,> 1780 µM
CN1C(C(=O)Nc2ccccn2)=C(O)c2sc(Cl)cc2S1(=O)=O,MDCK low-efflux cells,passive permeability,,apical to basolateral,,Papp,44.7 ×10⁻⁶ cm/s
Cn1cc(-c2ccc(-c3cncc(Cl)c3N3CCC4(CCNC4=O)CC3)cc2)cn1,COLO 205,"gene expression, microarray, item: TNFRSF12A mRNA",,"concentration not given, 6 h",relative to: untreated cells,log2 fold change,1.85
CC[C@@H]1[C@H](F)C(=O)N[C@@H]1COc1nccc2cc(C(N)=O)c(OC)cc12,"Serine/threonine-protein kinase TBK1 (TBK1, Homo sapiens, UniProt Q9UHD2)","ATP-site probe binding, ActivX profiling",THP-1 cell lysate,"0.2 mM, Lys1 site",,inhibition,-31.6%
Nc1nc(O)c2ncn(COC(CO)CO)c2n1,HEL,cell morphology,,,,minimum cytotoxic concentration,394 µM
CN1C(C(=O)Nc2nccs2)=C(O)c2ccccc2S1(=O)=O,MDCK low-efflux cells,passive permeability,,apical to basolateral,,Papp,29.5 ×10⁻⁶ cm/s
CN1CCN(c2ccc(Nc3ncc4cc(C#N)c(=O)n(C5CCCC5)c4n3)cc2)CC1,"Calcium/calmodulin-dependent protein kinase type 1D (CAMK1D, Homo sapiens, UniProt Q8IU85)",,,,,IC50,2.45 µM
CCCCc1cn(C/C=C2\OC(=O)C(OCc3ccccc3)=C2OCc2ccccc2)nn1,HEL,,,,,minimum cytotoxic concentration,100 µM
CC(C)NCC(O)c1ccc(NS(C)(=O)=O)cc1 (stereo not shown),hiPSC-derived cardiomyocytes,,,"50 µM, coupled state",,spike slope,decreased
CC(C)(C(=O)N1CCOc2c(C#N)cncc2C1)C(F)F,,item: Cardiac disorders,human,"oral, 10 mg once daily, 14 days, multiple ascending dose",,subjects with adverse event,0%
CC(CCC(=O)NCC(=O)O)C1CCC2C3C(O)CC4CC(O)CCC4(C)C3CCC12C (stereo not shown),human hepatocytes in suspension,"item: cholic acid, CDCA",,"100 µM, 1 h",,bile salt transported fraction,> 90%
CC(=O)N(C)[C@H]1CCN(C(=O)c2cnc3c(c2)C[C@](C)(c2ccc(F)cc2)N3)C1,vanin activity,item: creatinine-normalised pantetheine,"human, urine","30 mg, 144 h after first dose, median",relative to: baseline,urinary pantetheine,1590%
COc1cccc(-c2n[nH]c(SCc3ccccn3)n2)c1OC,CHO-WBL,,,"200 µg/mL, 3 h, without S9",,micronuclei per binucleated cell,0.015
CC(C)C[C@H](NC(=O)C[C@H](O)[C@H](CC(C)C)NC(=O)[C@H](Cc1c[nH]cn1)NC(=O)CNC(=O)[C@@H](NC(=O)[C@H](C)NC(=O)[C@H](Cc1c[nH]c2ccccc12)NC(=O)[C@H](CCC(N)=O)NC(=O)[C@@H](Cc1ccccc1)NC(=O)COCCOCCNC(=O)CCC(C(=O)O)N1CCN(CC(=O)O)CCN(CC(=O)O)CCN(CC(=O)O)CC1)C(C)C)C(N)=O (stereo partly shown) [lutetium-177 labelled],,,"BALB/c nu/nu mice, female, heart","intravenous, 100 pmol, 30 min, time course 0.5 h, together with: PA 300 µg",,tissue uptake,0.8 ± 0.2 %ID/g
NC(=O)c1ncn([C@@H]2O[C@H](CO)[C@@H](O)[C@H]2O)n1,HEL,,,,,minimum cytotoxic concentration,> 250 µM
Cc1nc(N(C)C(=O)Cc2ccc(-c3ccccn3)cc2)sc1S(N)(=O)=O,primary human fibroblasts uninfected,live/dead staining,,"48 h, capped at 10.00 µM",,CC50,> 10 µM
C[C@H](NC(=O)[C@]1(Cc2ccccc2)CCN1C(=O)OCc1ccccc1)C(=O)NC(C)(C)C,HEL,cell morphology,,,,minimum cytotoxic concentration,> 100 µM
CCCCCCCC[N+](CCCCCCCC)(CCCCCCCC)CCCCCCCC.[Br-],hTERT-RPTEC-OAT1,,,"concentration not given, Transwell, basolateral-to-apical addition",,LDH release,119 mU/mL and 98.2 mU/mL
CC[C@H]1[C@@H](O)[C@@H]2[C@H](CC[C@]3(C)[C@@H]([C@H](C)CCNC(=O)NS(=O)(=O)c4ccc(C(C)(C)C)cc4)CC[C@@H]23)[C@@]2(C)CC[C@@H](O)C[C@@H]12,"ATP-dependent translocase ABCB1 (ABCB1, Homo sapiens, UniProt P08183)",,"human, plasma","dose not given, mean, alone",,half-life,10.8 h
CC1(C)CCC(c2ccc(Cl)cc2)=C(CN2CCN(c3ccc(C(=O)NS(=O)(=O)c4ccc(N[C@H](CCN5CCOCC5)CSc5ccccc5)c(S(=O)(=O)C(F)(F)F)c4)cc3)CC2)C1,C2BBe1 monolayers,,,"50 % saturated solubility, 2 h, basolateral fractions 1-10, together with: taurocholate/phosphatidylcholine micelles",,drug secreted with TRL,2.6 ± 1.9%
C/C(O)=C(\C#N)C(=O)Nc1ccc(C(F)(F)F)cc1,EL4,,culture medium,"1 µM, 48 h",,free drug concentration,260 nM
Cc1ccc2ccc(C#N)c(O)c2n1,RRCK low-efflux MDCK-II cells,,,"1.5 h, 37 °C, apical to basal",,Papp,2.91 ×10⁻⁶ cm/s
Cc1cc(NC(=O)C2=C(O)c3ccccc3S(=O)(=O)N2C)no1,MDCK low-efflux cells,passive permeability,,apical to basolateral,,Papp,23 ×10⁻⁶ cm/s
CC(C)=CCC[C@@]1(C)C(CC[C@H]2[C@]3(C)CC[C@H](O)C(C)(C)O[C@H]3CC[C@@]2(C)O)=C(C)CC[C@H]1O,HEK293 empty vector,"cell viability, MTT",,72 h,,IC50,> 50 µM
Cc1cc(Nc2ccc(S(F)(F)(F)(F)F)cc2)n2nc(C(C)(F)F)nc2n1,Plasmodium vivax,,human Plasmodium vivax malaria patients,"oral, 800 mg",,patients with blood or lymphatic AEs,0%
CC(C)C[C@H](NC(=O)C[C@H](O)[C@H](CC(C)C)NC(=O)[C@H](Cc1c[nH]cn1)NC(=O)CNC(=O)[C@@H](NC(=O)[C@H](C)NC(=O)[C@H](Cc1c[nH]c2ccccc12)NC(=O)[C@H](CCC(N)=O)NC(=O)[C@@H](Cc1ccccc1)NC(=O)COCCOCCNC(=O)CN1CCN(CC(=O)O)CCN(CC(=O)O)CCN(CC(=O)O)CC1)C(C)C)C(N)=O [lutetium-177 labelled],,,"BALB/c nu/nu mice, female, carcass incl. GI tract contents","intravenous, 50 pmol, 24 h",,tissue uptake,0.2 ± 0.1 %ID
O=C(/C=C\n1cnc(-c2cc(C(F)(F)F)cc(C(F)(F)F)c2)n1)NNc1ccccn1,primary human fibroblasts uninfected,live/dead staining,,48 h,,CC50,> 60 µM

# Repeated from above:
Structure (SMILES),tested on,test,system,setting,scale,measurement,value
CC1(C)CC(=O)c2c(C(F)(F)F)nn(-c3ccc(C(N)=O)c(N[C@H]4CC[C@H](O)CC4)c3)c2C1,primary human fibroblasts uninfected,live/dead staining,,48 h,,CC50,> 60 µM
N#Cc1ccc2c(c1)[C@H]1CCCN(C(=O)c3ccc4[nH]cnc4c3)[C@H]1C2,,,human,"360 mg, day 7",,minimum ACTH level,3.5 pmol/L
COc1ccc(Cn2cc(CO[C@@H]3O[C@H]4[C@H](OC[C@H]4O)[C@H]3O)nn2)cc1,HCT-116,"cytotoxicity, CellTiter-Glo",,"up to 30 µM, 72 h",,viability,not toxic
O=C(Nc1ccncc1)c1cc([N+](=O)[O-])ccc1Cl,THP-1 PMA-differentiated macrophages,CellTiter-Glo,,"72 h, host cell cytotoxicity",,CC50,22 µM
Nc1nc2c(ncn2COCCO)c(=O)[nH]1,HEL,cell morphology,,,,minimum cytotoxic concentration,> 1780 µM
